Experimental data gathered from unrelated publications.
Each line is one published result; not all experiments were run side by side. pKd: −log10 of the molar value.
Sequence of UniProt Q13163 (whole entry, looked up): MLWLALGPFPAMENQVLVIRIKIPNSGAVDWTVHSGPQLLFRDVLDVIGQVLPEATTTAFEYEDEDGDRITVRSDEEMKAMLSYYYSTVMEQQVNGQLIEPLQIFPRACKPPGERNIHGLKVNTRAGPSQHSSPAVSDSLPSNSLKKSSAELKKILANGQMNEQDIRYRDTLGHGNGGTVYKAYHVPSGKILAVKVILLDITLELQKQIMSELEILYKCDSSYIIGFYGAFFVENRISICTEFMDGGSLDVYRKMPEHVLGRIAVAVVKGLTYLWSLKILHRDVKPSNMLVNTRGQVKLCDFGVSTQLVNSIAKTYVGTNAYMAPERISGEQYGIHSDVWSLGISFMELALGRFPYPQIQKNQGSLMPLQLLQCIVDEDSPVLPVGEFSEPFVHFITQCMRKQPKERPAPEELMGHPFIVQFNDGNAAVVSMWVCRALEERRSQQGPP
Sequence of UniProt Q14524 (whole entry, looked up): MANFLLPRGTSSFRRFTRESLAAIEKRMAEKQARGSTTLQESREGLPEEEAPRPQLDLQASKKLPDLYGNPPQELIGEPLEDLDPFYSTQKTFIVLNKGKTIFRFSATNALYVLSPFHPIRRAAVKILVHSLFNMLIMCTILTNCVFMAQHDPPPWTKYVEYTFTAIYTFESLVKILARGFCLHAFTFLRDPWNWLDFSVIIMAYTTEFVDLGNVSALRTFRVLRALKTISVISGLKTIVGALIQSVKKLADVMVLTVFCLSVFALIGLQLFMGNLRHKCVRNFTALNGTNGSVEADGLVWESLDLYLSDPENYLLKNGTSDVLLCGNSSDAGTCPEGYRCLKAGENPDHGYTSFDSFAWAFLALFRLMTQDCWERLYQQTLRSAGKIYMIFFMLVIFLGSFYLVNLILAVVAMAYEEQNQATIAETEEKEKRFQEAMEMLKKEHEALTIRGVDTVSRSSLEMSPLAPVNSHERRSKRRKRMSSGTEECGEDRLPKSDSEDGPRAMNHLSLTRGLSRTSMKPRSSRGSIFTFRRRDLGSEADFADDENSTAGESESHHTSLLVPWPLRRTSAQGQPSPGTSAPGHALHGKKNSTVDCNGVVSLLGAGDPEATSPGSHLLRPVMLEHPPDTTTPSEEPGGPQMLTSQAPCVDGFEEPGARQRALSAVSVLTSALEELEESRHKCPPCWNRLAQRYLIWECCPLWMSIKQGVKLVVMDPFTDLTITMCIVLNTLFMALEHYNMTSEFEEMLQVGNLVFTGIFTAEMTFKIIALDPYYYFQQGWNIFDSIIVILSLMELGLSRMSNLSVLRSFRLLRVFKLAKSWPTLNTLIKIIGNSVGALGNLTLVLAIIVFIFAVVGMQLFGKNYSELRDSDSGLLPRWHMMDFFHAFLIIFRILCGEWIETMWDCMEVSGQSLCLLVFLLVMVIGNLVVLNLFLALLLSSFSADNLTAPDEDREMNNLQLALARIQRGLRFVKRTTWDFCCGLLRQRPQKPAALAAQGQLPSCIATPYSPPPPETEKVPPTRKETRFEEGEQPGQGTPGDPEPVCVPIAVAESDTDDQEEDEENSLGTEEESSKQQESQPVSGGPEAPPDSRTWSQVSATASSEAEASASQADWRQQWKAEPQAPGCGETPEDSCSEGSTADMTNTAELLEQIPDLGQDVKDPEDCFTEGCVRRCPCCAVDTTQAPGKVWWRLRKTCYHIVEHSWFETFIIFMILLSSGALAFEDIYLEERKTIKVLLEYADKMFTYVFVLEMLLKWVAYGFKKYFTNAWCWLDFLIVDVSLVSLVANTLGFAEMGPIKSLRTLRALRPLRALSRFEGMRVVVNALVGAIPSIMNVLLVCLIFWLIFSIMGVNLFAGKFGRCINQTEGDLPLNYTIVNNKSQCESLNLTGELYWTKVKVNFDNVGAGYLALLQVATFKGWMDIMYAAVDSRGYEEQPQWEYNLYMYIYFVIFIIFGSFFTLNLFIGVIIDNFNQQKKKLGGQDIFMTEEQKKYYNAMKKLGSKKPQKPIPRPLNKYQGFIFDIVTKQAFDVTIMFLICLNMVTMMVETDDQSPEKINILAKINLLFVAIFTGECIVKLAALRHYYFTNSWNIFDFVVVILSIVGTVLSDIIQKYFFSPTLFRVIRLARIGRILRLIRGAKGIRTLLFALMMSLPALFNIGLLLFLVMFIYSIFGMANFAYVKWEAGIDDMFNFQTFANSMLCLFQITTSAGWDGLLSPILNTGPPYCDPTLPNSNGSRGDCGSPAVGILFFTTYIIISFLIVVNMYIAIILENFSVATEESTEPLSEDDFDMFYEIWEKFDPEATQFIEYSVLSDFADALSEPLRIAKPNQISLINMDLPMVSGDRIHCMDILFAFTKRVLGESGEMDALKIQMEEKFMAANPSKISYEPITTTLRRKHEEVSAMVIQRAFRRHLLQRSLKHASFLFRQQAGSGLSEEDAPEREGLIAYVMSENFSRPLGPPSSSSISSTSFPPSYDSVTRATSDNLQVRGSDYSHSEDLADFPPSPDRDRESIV
Sequence of UniProt P02769 (whole entry, looked up): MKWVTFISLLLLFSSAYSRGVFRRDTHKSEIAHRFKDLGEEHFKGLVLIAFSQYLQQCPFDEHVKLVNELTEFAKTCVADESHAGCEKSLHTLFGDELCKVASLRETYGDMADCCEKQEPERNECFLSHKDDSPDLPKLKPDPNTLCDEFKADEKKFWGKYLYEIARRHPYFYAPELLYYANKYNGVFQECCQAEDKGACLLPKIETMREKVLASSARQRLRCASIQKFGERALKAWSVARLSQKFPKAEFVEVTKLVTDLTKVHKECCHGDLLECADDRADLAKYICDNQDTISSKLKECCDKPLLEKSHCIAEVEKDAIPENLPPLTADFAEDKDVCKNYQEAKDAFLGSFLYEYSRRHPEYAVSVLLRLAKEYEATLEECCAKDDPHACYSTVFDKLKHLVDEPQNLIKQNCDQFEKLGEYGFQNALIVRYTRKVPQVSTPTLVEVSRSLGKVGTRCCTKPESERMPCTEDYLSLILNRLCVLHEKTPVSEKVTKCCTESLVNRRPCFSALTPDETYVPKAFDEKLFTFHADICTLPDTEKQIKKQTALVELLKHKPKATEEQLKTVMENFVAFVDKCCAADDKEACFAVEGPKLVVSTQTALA

SMILES	target or system	test	system	setting	endpoint	result
COc1ccc([C@@]23Oc4cc(OC)cc(OC)c4[C@@]24N=C(C2CC2)N[C@@]4(O)[C@H](C(=O)N(C)OC)[C@H]3c2ccccc2)cc1		metabolic stability	male Sprague-Dawley rat, liver microsomes	1 µM, pH 7.4	microsomal CLint	35.6 µL/min/mg
Cc1ccc(S(=O)(=O)Oc2ccc3c(c2)Oc2nc4c(c(N)c2C3c2ccc(Cl)c(Cl)c2)CCCC4)cc1 (stereo not shown)	SH-SY5Y	cell growth or viability, MTT		1.6 µM	viability	80.5%
COc1cc(-c2[o+]c3cc(O)cc(O)c3cc2O[C@@H]2O[C@H](CO)[C@@H](O)[C@H](O)[C@H]2O)cc(OC)c1O	Albumin (ALB, Bos taurus, UniProt P02769)	binding, absorbance		pH 7	pKd	3.40
[2H]c1c([2H])c([C@]2([2H])CCCN2C(=O)C(C)(C)Oc2ccc3cn[nH]c3c2)c([2H])c([2H])c1C([2H])([2H])[2H]	Dual specificity mitogen-activated protein kinase kinase 5 (MAP2K5, Homo sapiens, UniProt Q13163)	binding, competition with immobilised ligand		1 µM	remaining binding	91%
CC(C)C[C@H](NC(=O)[C@H](Cc1ccccc1)NC(=O)[C@H](Cc1ccccc1)NC(=O)Cc1ccc(-c2ccccc2)cc1)C(=O)N[C@@H](CCCCN)C(=O)N[C@@H](CCCNC(=N)N)C(=O)N[C@H](C(=O)N[C@@H](Cc1c[nH]c2ccccc12)C(=O)N[C@@H](CCCCN)C(=O)N[C@@H](CCCNC(=N)N)C(=O)O)C(C)C		metabolic stability	dog, liver microsomes	30 min	compound remaining	65.1%
C[C@]12CC[C@H]3[C@@H](CC=C4CC(O)CC[C@@]43CO)[C@@H]1CCC2O (stereo partly shown)			rat, plasma	intraperitoneal, 20 mg/kg	half-life	1.39 h
Cc1cccc(C)c1NC(=O)C1CCCCN1 (stereo not shown)	Sodium channel protein type 5 subunit alpha (SCN5A, Homo sapiens, UniProt Q14524)	ion current, inhibitor, patch clamp		100 µM	inhibition	23.4%
O=C1CC[C@H](N2Cc3c(ccc4c3OCC43CCN(C[C@@H]4CCC5(CCN(c6ccc([C@@H]7c8ccc(O)cc8CC[C@@H]7c7ccccc7)cc6)CC5)OC4)CC3)C2=O)C(=O)N1			mouse, plasma	intravenous, 1 mg/kg	clearance	18.8 mL/min/kg
COc1ccc(S(=O)(=O)Oc2ccc3c(c2)Oc2nc4c(c(N)c2C3c2cccc(OC)c2)CCCC4)cc1 (stereo not shown)	SH-SY5Y	cell growth or viability, MTT		25 µM	viability	60.9%
CC[C@H](C)CCCCC(=O)N[C@@H](CCN)C(=O)N[C@H](C(=O)N[C@@H](CCN)C(=O)N[C@H]1CCNC(=O)[C@H]([C@@H](C)O)NC(=O)[C@H](CCN)NC(=O)[C@H](CCN)NC(=O)[C@H](CC(C)C)NC(=O)[C@@H](CC(C)C)NC(=O)[C@H](CCN)NC1=O)[C@@H](C)O			male Sprague-Dawley rat, plasma	subcutaneous, 10 mg/kg	AUC(0-t)	22500 ng·h/mL
Cn1cc2c3c1C(=O)C(N)=CC3=[N+](C)CC2	HeLa	cell growth or viability, MTT		72 h	CC50	0.78 µM
Nc1c2c(nc3c1C(c1ccc(Cl)c(Cl)c1)c1ccc(OCC(=O)c4ccc(Cl)cc4)cc1O3)CCCC2 (stereo not shown)	SH-SY5Y	cell growth or viability, MTT		25 µM	viability	59.4%
[18FH]			mouse, liver	intravenous, 1 h	tracer uptake	0.17 %ID/g
